Published values pooled from the literature.
Compare with care: the assays were run in different laboratories. ± gives the spread as reported.
ABCB1: ATP-dependent translocase ABCB1 (ABCB1, Homo sapiens, UniProt P08183)
T1: RNA aptamer minimized 10-24; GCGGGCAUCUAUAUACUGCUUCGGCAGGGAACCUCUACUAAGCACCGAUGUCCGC

Molecule = C#C[C@]1(COP(=O)(O)OP(=O)(O)OP(=O)(O)O)O[C@@H](n2cnc3c(N)nc(F)nc32)C[C@@H]1O; target or system = human PBMC tumour model; test system = host not given, plasma; conditions = oral, 5 mg, single dose, fasted; endpoint = Tmax; result = 9 h
Molecule = CCCC[C@H](NC(C)=O)C(=O)N[C@H]1CCC(=O)NC[C@@H](C(=O)N[C@@H](Cc2c[nH]c3ccccc23)C(N)=O)NC(=O)[C@H](CCCNC(=N)N)NC(=O)[C@@H](Cc2ccccc2)NC(=O)[C@H](Cc2c[nH]cn2)NC1=O; test system = beagle dog, female, plasma; conditions = subcutaneous, 40.0 mg/kg daily, day 14; endpoint = AUC(0-last); result = 6.22 µg·h/mL
Molecule = COc1ccc(-c2cc(N3CCN(C(=O)c4ccoc4)CC3)n3nc(-c4cccc(Cl)c4)cc3n2)cc1; target or system = ABCB1; assay = JC-1 efflux, inhibitor; test system = Jurkat-DNR; endpoint = IC50; result = 4.12 ± 1.05 µM
Molecule = CC(C)(C)OC(=O)n1c(-c2ccccc2)cc2ccccc21; target or system = HEK293; assay = cell growth or viability; conditions = 50 µM; endpoint = viability; result = 107%
Molecule = CCc1ccc(C(=O)Nc2cc3nc(C4CCCCC4)[nH]c3cc2N(CC)CC)cc1; target or system = Vero; assay = cytotoxicity, Alamar Blue; conditions = 3 days, 37 °C; endpoint = IC50; result = > 100 mg/L
Molecule = CC(C)[C@H](NC(=O)[C@@H]1CCCN1C(=O)[C@H](CCCNC(=N)N)NC(=O)[C@H](CS)NC(=O)[C@H](Cc1c[nH]c2ccccc12)NC(=O)[C@H](CCCNC(=N)N)NC(=O)[C@@H](Cc1ccccc1)NC(=O)[C@H](Cc1c[nH]cn1)NC(=O)[C@H](CCC(=O)O)NC(=O)[C@H](CS)NC(=O)[C@H](CS)NC(=O)[C@H](CCCNC(=N)N)NC(=O)[C@@H]1CC(=O)N[C@@H](CCCNC(=N)N)C(=O)N[C@@H](C)C(=O)N[C@@H](CC(=O)O)C(=O)N[C@H](Cc2ccc(O)cc2)C(=O)N1)C(N)=O [technetium-99m labelled]; test system = C57 mouse, intestine; conditions = intravenous, 0.037 MBq, 24 h; endpoint = tissue uptake; result = 0.41 ± 0.11 %ID
Molecule = CCCCNC(=O)Nc1cc2nc(C3CCCCC3)[nH]c2cc1N1CCCC1; target or system = Vero; assay = cytotoxicity, Alamar Blue; conditions = 3 days, 37 °C; endpoint = IC50; result = > 100 mg/L
Molecule = O=C(c1cccc(Cl)c1)N1CCN(c2cc(-c3ccccc3)nc3cc(-c4cccc(Cl)c4)nn23)CC1; target or system = ABCB1; assay = JC-1 efflux, inhibitor; test system = Jurkat-DNR; endpoint = IC50; result = 4.19 ± 1.88 µM
Molecule = CC(C)[C@H](NC(=O)[C@@H]1CCCN1C(=O)[C@H](CCCNC(=N)N)NC(=O)[C@H](CS)NC(=O)[C@H](Cc1c[nH]c2ccccc12)NC(=O)[C@H](CCCNC(=N)N)NC(=O)[C@@H](Cc1ccccc1)NC(=O)[C@H](Cc1c[nH]cn1)NC(=O)[C@H](CCC(=O)O)NC(=O)[C@H](CS)NC(=O)[C@H](CS)NC(=O)[C@H](CCCCN)NC(=O)[C@@H]1CC(=O)N[C@@H](CCCNC(=N)N)C(=O)N[C@@H](C)C(=O)N[C@@H](CC(=O)O)C(=O)N[C@H](Cc2ccc(O)cc2)C(=O)N1)C(N)=O [technetium-99m labelled]; test system = C57 mice, blood; conditions = intravenous, 0.037 MBq, 2 h; endpoint = tissue uptake; result = 0.49 ± 0.31 %ID/g
Molecule = CC(C)C[C@H](N)C(=O)O; target or system = Methyl-accepting chemotaxis protein CtaA (Pseudomonas fluorescens, UniProt Q3K7T6); assay = binding, ITC; endpoint = Kd; result = 10 ± 2 µM
Molecule = N#Cc1cnc2cnc(NCc3cccnc3)cc2c1Nc1ccc(F)c(Cl)c1; target or system = HeLa expressing ODD-Luc; assay = ODD-Luc degradation, inhibitor, cycloheximide chase luciferase; endpoint = IC50; result = ~10 µM
Molecule = COc1cccc(-c2cc3nc(-c4ccccc4)cc(N4CCN(C(=O)c5ccoc5)CC4)n3n2)c1; target or system = ABCB1; assay = JC-1 efflux, inhibitor; test system = Jurkat-DNR; endpoint = IC50; result = 2.26 ± 0.83 µM
Molecule = c1ccc(N(c2ccccc2)c2ccc(-c3ccc(N(c4ccccc4)c4ccc(-c5ccc(N(c6ccccc6)c6ccc(-c7ccc(N(c8ccccc8)c8ccccc8)cc7)cc6)cc5)cc4)cc3)cc2)cc1; target or system = Cyprinus carpio; assay = everted gut sac; test system = intestine; conditions = concentration not given, 24 h, 23 °C; endpoint = concentration in mucosal solution; result = 97.7 ± 1.5 µg/mL
Molecule = O=C(Nc1cc2nc(C3CCCCC3)[nH]c2cc1N1CCCC1)c1ccccc1; target or system = Vero; assay = cytotoxicity, Alamar Blue; conditions = 3 days, 37 °C; endpoint = IC50; result = > 100 mg/L
Molecule = CC(C)(C)c1ccc(S(=O)(=O)/C=C/C#N)cc1; target or system = HEK293 NF-κB luciferase reporter; assay = NF-κB reporter gene, antagonist; conditions = 24 h, added: TNFα 5 ng/mL; endpoint = EC50; result = 31.7 µM
Molecule = CN(C)c1cc2[nH]c(C3CCCCC3)nc2cc1NC(=O)OCc1ccccc1; target or system = Vero; assay = cytotoxicity, Alamar Blue; conditions = 3 days, 37 °C; endpoint = IC50; result = > 100 mg/L
Molecule = COc1ccc2cc(-c3cc4ccccc4[nH]3)ccc2c1; target or system = HEK293; assay = cell growth or viability; conditions = 50 µM; endpoint = viability; result = 93.5%
Molecule = c1ccc2c(c1)ccc1ccccc12; target or system = Cyprinus carpio; assay = everted gut sac; test system = intestine; conditions = concentration not given, 24 h, 23 °C; endpoint = concentration in mucosal solution; result = 122 ± 5.8 µg/mL
Molecule = COCCOC(=O)Nc1cc2nc(C3CCCCC3)[nH]c2cc1N1CCCC1; target or system = Vero; assay = cytotoxicity, Alamar Blue; conditions = 3 days, 37 °C; endpoint = IC50; result = > 100 mg/L
Molecule = COc1ccccc1C(=O)N1CCN(c2cc(-c3ccccc3)nc3cc(-c4cccc(Cl)c4)nn23)CC1; target or system = ABCB1; assay = JC-1 efflux, inhibitor; test system = Jurkat-DNR; endpoint = IC50; result = 4.73 ± 1.78 µM
Molecule = Cc1cc(OCc2nnc(SC3CCCC3)n2-c2cccnc2)ccc1-c1ccc(S(C)(=O)=O)cc1; target or system = Huh-7 cells, uninfected; conditions = 0.5 µM, 5 days; endpoint = viability; result = 42 ± 4%
Molecule = COc1ccccc1-c1cc(N2CCN(C(=O)c3ccoc3)CC2)n2nc(-c3ccccc3)cc2n1; target or system = ABCB1; assay = JC-1 efflux, inhibitor; test system = Jurkat-DNR; endpoint = IC50; result = 4.52 µM
Molecule = O=C(NCc1ccccc1)Nc1cc2nc(C3CCCCC3)[nH]c2cc1N1CCCC1; target or system = Vero; assay = cytotoxicity, Alamar Blue; conditions = 3 days, 37 °C; endpoint = IC50; result = > 100 mg/L
Molecule = CC(C)(C)c1cc(CCC(=O)OCC(COC(=O)CCc2cc(C(C)(C)C)c(O)c(C(C)(C)C)c2)(COC(=O)CCc2cc(C(C)(C)C)c(O)c(C(C)(C)C)c2)COC(=O)CCc2cc(C(C)(C)C)c(O)c(C(C)(C)C)c2)cc(C(C)(C)C)c1O; target or system = Cyprinus carpio; assay = everted gut sac; test system = intestine; conditions = concentration not given, 24 h, 23 °C; endpoint = concentration in mucosal solution; result = 75.7 ± 5.1 µg/mL
Molecule = O=C(c1cccnc1)N1CCN(c2cc(-c3ccccc3)nc3cc(-c4cccc(Cl)c4)nn23)CC1; target or system = ABCB1; assay = JC-1 efflux, inhibitor; test system = Jurkat-DNR; endpoint = IC50; result = 0.57 ± 0.08 µM
Molecule = Nc1nc2c(ncn2[C@@H]2O[C@H](COP(=O)(O)OP(=O)(O)OP(=O)(O)O)[C@@H](O)[C@H]2O)c(=O)[nH]1; target or system = T1, RNA aptamer minimized 10-24; assay = ultrafiltration; conditions = apparent, added: GTP; endpoint = Kd; result = 0.3 µM
Molecule = O=C(c1ccncc1)N1CCN(c2cc(-c3ccccc3)nc3cc(-c4cccc(Cl)c4)nn23)CC1; target or system = ABCB1; assay = JC-1 efflux, inhibitor; test system = Jurkat-DNR; endpoint = IC50; result = 1.16 ± 0.3 µM
Molecule = CC(C)(C)c1cc(C(C)(C)C)c(NC(=O)c2c[nH]c3ccccc3c2=O)cc1O; target or system = Calu-3; conditions = concentration not given, 4 h, basal to apical transport; endpoint = permeated amount; result = 3 to 12%
Molecule = Cn1nc2c3c(cccc31)C(=O)c1ccccc1-2; target or system = HeLa expressing Luc-ODC; assay = Luc-ODC degradation, inhibitor, cycloheximide chase luciferase; endpoint = IC50; result = 0.11 ± 0.01 µM
Molecule = CCCCCC(=O)Nc1cc2nc(C3CCCCC3)[nH]c2cc1N1CCCC1; target or system = Vero; assay = cytotoxicity, Alamar Blue; conditions = 3 days, 37 °C; endpoint = IC50; result = > 100 mg/L
Molecule = Telavancin; target or system = J774 mouse macrophages; conditions = 90 mg/L, 24 h; endpoint = cellular concentration; result = 4 mg/mL
